Experimental data collected from several papers.
Parts stem from different laboratories: compare values within a part only.

Series 1 — method: protein-binding microarray; form: double-stranded DNA, one strand shown; sample: in vitro; tested at: 2540 nM top; setting: 60-bp whole probe; added: salmon DNA 0.4 mg/ml; relative to: random background probes; reading: higher = stronger binding; endpoint: fitted relative affinity; shared flanks, not repeated: GCCTAGCAC … GTCTTGATTCGCTTGACGCTGCTG
Target: Interferon regulatory factor 3, full length, phosphomimetic (IRF3, Homo sapiens, UniProt Q14653, residues 1-427, S386D/S396D/S398D/S402D/T404D/S405D)
Residues (chain): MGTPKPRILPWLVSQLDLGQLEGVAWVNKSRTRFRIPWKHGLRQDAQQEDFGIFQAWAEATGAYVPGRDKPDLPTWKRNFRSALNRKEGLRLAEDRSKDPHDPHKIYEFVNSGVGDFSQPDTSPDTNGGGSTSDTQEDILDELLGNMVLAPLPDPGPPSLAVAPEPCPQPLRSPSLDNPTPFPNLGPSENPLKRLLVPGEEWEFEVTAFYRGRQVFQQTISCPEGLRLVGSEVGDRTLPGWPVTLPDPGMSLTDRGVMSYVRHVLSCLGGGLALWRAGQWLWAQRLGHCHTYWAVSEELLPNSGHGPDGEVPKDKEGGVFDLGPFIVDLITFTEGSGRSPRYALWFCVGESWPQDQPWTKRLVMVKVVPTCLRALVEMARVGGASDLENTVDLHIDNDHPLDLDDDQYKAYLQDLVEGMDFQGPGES
TTAGGTATCCTTTTCCTTTGGTGCTAG: 8.36 z-score
TTAGGTATCCTTATCCCTTAGTGCTAG: 5.41 z-score
GACGGTTCCGGTTTCGGGGCGTGCTAG: 5.83 z-score
TCAAATTTAGAAAATGGAACTGTGCTA: 0.197 z-score
TTAGATTTCGGTTTCGATTAGTGCTAG: 8.33 z-score
CTATTTTTCACCTGCACTCAGTGCTAG: 1.33 z-score
GACGATCTCAGTTTCGAGATGTGCTAG: 2.62 z-score
TTAGGTTCCCTTTTCCTTTAGTGCTAG: 7.76 z-score

Series 2 — method: universal PBM; form: double-stranded DNA, one strand shown; sample: in vitro; tested at: 600 nM; reading: higher = stronger binding; endpoint: E-score
Target: Sal-like protein 4, full length isoform A (SALL4, Homo sapiens, UniProt Q9UJQ4, residues 1-1053)
UniProt Q9UJQ4, sequence (whole entry, looked up): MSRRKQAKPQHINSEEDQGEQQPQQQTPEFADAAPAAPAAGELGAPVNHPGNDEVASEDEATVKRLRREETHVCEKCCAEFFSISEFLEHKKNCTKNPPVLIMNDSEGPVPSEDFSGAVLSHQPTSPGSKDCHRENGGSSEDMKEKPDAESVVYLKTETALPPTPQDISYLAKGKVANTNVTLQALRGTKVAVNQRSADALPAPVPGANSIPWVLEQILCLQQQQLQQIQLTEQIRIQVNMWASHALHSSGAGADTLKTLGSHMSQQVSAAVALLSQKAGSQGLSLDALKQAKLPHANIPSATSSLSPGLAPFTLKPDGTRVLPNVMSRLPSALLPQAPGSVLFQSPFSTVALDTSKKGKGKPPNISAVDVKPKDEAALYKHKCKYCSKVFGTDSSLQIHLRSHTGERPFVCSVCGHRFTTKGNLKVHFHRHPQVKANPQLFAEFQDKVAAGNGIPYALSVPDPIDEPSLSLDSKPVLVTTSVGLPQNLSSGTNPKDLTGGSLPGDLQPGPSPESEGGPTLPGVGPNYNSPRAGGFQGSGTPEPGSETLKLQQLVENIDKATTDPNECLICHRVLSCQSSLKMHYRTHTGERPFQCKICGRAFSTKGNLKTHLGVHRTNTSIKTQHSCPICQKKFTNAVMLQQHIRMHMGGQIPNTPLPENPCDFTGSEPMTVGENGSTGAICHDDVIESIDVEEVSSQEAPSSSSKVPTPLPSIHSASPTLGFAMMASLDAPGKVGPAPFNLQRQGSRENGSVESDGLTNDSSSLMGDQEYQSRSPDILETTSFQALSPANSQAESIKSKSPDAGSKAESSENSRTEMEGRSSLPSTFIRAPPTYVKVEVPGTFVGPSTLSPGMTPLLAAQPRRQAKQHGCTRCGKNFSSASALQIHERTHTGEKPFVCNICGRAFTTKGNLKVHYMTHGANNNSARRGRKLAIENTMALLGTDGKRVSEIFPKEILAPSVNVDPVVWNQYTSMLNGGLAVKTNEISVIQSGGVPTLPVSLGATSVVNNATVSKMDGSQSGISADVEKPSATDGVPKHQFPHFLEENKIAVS
Setting: 8-mer, flanks averaged, mean of replicates
CCACTGCA: -0.0937
CACGTTGG: -0.113
CGACATAC: -0.0607
AAAAATTA: 0.427
CGCACGTA: -0.0375
AAGACCGC: -0.0871
ACCAGGCT: -0.214

Series 3 — method: protein-binding microarray; form: double-stranded DNA, one strand shown; sample: in vitro; tested at: 0.8 µM; setting: whole 60-bp probe, no competitor; reading: higher = stronger binding; endpoint: fluorescence intensity
Target: Centromere-binding protein 1, full length, N-terminal tag (CBF1, Saccharomyces cerevisiae, UniProt P17106, residues 1-351)
UniProt P17106, sequence (whole entry, looked up): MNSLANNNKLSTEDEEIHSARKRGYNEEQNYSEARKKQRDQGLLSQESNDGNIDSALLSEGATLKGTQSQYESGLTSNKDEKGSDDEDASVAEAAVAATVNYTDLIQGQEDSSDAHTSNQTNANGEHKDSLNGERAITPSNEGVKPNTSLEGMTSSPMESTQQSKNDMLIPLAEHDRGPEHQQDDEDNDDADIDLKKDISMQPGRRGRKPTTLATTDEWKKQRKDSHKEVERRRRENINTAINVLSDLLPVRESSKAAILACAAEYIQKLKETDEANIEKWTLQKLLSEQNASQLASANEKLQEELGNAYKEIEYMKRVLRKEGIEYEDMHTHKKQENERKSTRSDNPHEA
CCTAACTACTATAATCATCATGCATAGCTTCGTACAGTCTTGATTCGCTTGACGCTGCTG: 527 a.u.
GAAAATTCCCCTCTTCTGATGCTTAATTGCCCCTAGGTCTTGATTCGCTTGACGCTGCTG: 494 a.u.
GAATTTTGTTTTTATCAGTTGAGATTGAATTATTAGGTCTTGATTCGCTTGACGCTGCTG: 585 a.u.
GAATATAATATGGTTCACGTGCGCTTCATCTTTTAGGTCTTGATTCGCTTGACGCTGCTG: 4440 a.u.

Mixed results
PhoQ, residues 284 288 289 292 302 303 TLSLKA  fold induction (PhoP, residues 12 14 15 18 19 NQFFI (Escherichia coli, UniProt P23836); Sort-seq, measured: YFP reporter; E. coli; PhoQ-PhoP variant library, added: 10 µM Mg2+; relative to: high Mg2+ state, higher = stronger signaling): 1.85

For quick reference, copied from above (series 1):
TCAAATTTAGAAAATGGAACTGTGCTA: 0.197 z-score
TTAGATTTCGGTTTCGATTAGTGCTAG: 8.33 z-score
